Published values from different studies.
Each line is one published result; not all experiments were run side by side. ± marks the error that the study gave.

SMILES	target or system	test	system	setting	scale	endpoint	result
Cc1[nH][n+]([Pd-2]([Br])([Br])[n+]2[nH]c(C)c(CSC3CCCCC3)c2C)c(C)c1CSC1CCCCC1	Jurkat	cytotoxicity, 7-AAD flow cytometry		24 h		IC50	0.19 ± 0.02 µM
CCCCCCCCCCCC(=O)NCCC(=O)N[C@H](CCCNC(=N)N)C(=O)N[C@H](CCCNC(=N)N)C(=O)N[C@H](CCCNC(=N)N)C(=O)N[C@H](CCCNC(=N)N)C(=O)N[C@H](CCCNC(=N)N)C(=O)N[C@H](CCCNC(=N)N)C(=O)N[C@H](CCCNC(=N)N)C(=O)N[C@H](CCCNC(=N)N)C(=O)N[C@H](CCCNC(=N)N)C(=O)N[C@@H](CCCCNC(=S)Nc1ccc2c(c1)C(=O)OC21c2ccc(O)cc2Oc2cc(O)ccc21)C(N)=O	Jurkat	RP-HPLC fluorescence, refers to: intact peptide	culture medium	6 h		peak area	32.3%
Cc1ccc(S(=O)(=O)Nn2c3c(cc(-c4nc5ccccc5s4)c2=O)CCCCCC3)cc1	FRhK-4	trypan blue		72 h		maximum non-toxic concentration	130 µg/mL
CC(=O)O[C@H]1CC[C@]2(C)[C@H]3CC=C4[C@@H]5CC(C)(C)CC[C@]5(CO)CC[C@@]4(C)[C@]3(C)CC[C@H]2C1(C)C	HEK293-A	cell growth or viability, SRB				IC50	97.2 µM
CC(C)=CCc1cc(-c2coc3cc(O)c(CC=C(C)C)c(O)c3c2=O)ccc1O	3T3-L1	MTT		concentration not given		viability	79.6 ± 1.8%
CC(=O)O[C@@H]1[C@@H](OC(C)=O)[C@H](Sc2sc(C(=O)c3ccc(Br)cc3)c(N)c2-c2nc3ccccc3s2)OC[C@@H]1OC(C)=O	FRhK-4			72 h		non-toxic concentration	90 µg/mL
O=C(Nc1cc(F)c(F)c(F)c1)c1ccc(F)c(S(=O)(=O)N2CCC(NC(=O)c3ccc(N4CCN(C(=O)CC56CC7CC(CC(C7)C5)C6)CC4)cc3)CC2)c1	HepAD38	cytopathic effect	human hepatoma cells			maximum non-toxic concentration	30 µmol/L
CC(=O)N[C@H]1[C@@H](OCc2cn(CC(=O)N3C[C@@H](ONC(=O)[C@@H]4C[C@H](ON5C(=O)c6ccccc6C5=O)CN4C(=O)Cn4cc(CO[C@H]5O[C@H](CO)[C@H](O)[C@H](O)[C@H]5NC(C)=O)nn4)C[C@H]3C(=O)NO[C@H]3C[C@@H](C(=O)NO[C@H]4C[C@@H](C(=O)OC(C)(C)C)N(C(=O)Cn5cc(CO[C@H]6O[C@H](CO)[C@H](O)[C@H](O)[C@H]6NC(C)=O)nn5)C4)N(C(=O)Cn4cc(CO[C@H]5O[C@H](CO)[C@H](O)[C@H](O)[C@H]5NC(C)=O)nn4)C3)nn2)O[C@H](CO)[C@H](O)[C@@H]1O	3T3-L1	MTS		concentration not given, 72 h		cytotoxicity	not toxic
CC(=O)[O-].Nc1ccc(C([O-])=NN=Cc2ccc(OCC(=O)Nc3ccc(Cl)cc3)cc2)cc1.[Ni+2]	WISH	cytotoxicity, MTT		24 h		IC50	18.3 ± 1.8 µM
O=c1c(-c2nc3ccccc3s2)cc2c(n1NS(=O)(=O)c1ccc(Cl)cc1)CCCCCC2	BGM	trypan blue		72 h		maximum non-toxic concentration	120 µg/mL
Cc1ccc(C(=O)c2sc(S)c(-c3nc4ccccc4s3)c2N)cc1	BGM	cytotoxicity		72 h		maximum non-toxic concentration	90 µg/mL
COc1ccc([C@@H]2CC(=O)c3c(O)cc(O[C@@H]4O[C@H](CO[C@@H]5O[C@@H](C)[C@H](O)[C@@H](O)[C@H]5O)[C@@H](O)[C@H](O)[C@H]4O)cc3O2)cc1O	MRC5	cell growth or viability, MTS		100 µg/mL, 24 h		viability	54.8%
CC(=O)N[C@H](C(=O)N[C@H](C(=O)N[C@@H](CCCNC(=N)N)C(=O)N1Cc2ccccc2C[C@H]1C(=O)N[C@@H](Cc1ccccc1)C(N)=O)C1CCCCC1)C(C)C	human PBMC	Bio-Plex multiplex, refers to: IL-4		500 µg/mL, 24 h		cytokine level	1.4 ± 0.2 pg/mL
CC(C)[C@H](NC(=O)[C@H](CCC(=O)O)NC(=O)[C@H](CCC(=O)O)NC(=O)[C@@H]1Cc2ccc(O)cc2CN1C(=O)[C@H](CCC(=O)O)NC(=O)[C@H](CC(=O)O)NC(=O)[C@H](CC(=O)O)NC(=O)[C@H](CCC(=O)O)NC(=O)[C@@H](CCCNC(=N)N)NC(=O)[C@@H](CCCNC(=N)N)NC(=O)[C@@H](CCCNC(=N)N)NC(=O)[C@H](C)N(C)C(=O)[C@H](Cc1ccccc1)NC(=O)[C@@H](NC(=O)[C@H](Cc1ccccc1)NC(=O)[C@H](C)NC(=O)[C@H](CCCNC(=N)N)N(C)C(=O)[C@@H]1CCCN1C(=O)[C@H](CCCNC(=N)N)NC(=O)CNC(=O)c1ccc2c(c1)C1(OC2=O)c2ccc(O)cc2Oc2cc(O)ccc21)[C@@H](C)O)C(N)=O	A-431			time not given, with: EGF		reporter degradation	71.2 ± 1.1%
O=C(CC12CC3CC(CC(C3)C1)C2)NC1CCN(S(=O)(=O)c2cc(C(=O)Nc3cc(F)c(F)c(F)c3)ccc2F)CC1	HepAD38	cytopathic effect	human hepatoma cells			maximum non-toxic concentration	4 µmol/L
CC1(C)NCCC[C@]2(C)[C@H]3CC=C4[C@@H]5C[C@@](C)(CO)CC[C@]5(C)CC[C@@]4(C)[C@]3(C)CC[C@@H]12	C-33 A	cell viability, CellTiter-Glo				CC50	1.34 µM
O=c1c(-c2nc3ccccc3s2)cc2c(n1NS(=O)(=O)c1ccccc1)CCCCCC2	FRhK-4	trypan blue		72 h		maximum non-toxic concentration	140 µg/mL
Cc1[nH][n+]([Pt-2]([Cl])([n+]2[nH]c(C)c(CSC3CCCCC3)c2C)[n+]2[nH]c(C)c(CSC3CCCCC3)c2C)c(C)c1CSC1CCCCC1.Cl	Jurkat	cytotoxicity, 7-AAD flow cytometry		24 h		IC50	0.02 µM
CC[C@@]1(C)CC[C@H]2[C@@](C)(CC[C@@]3(C)[C@@H]4CC(C)(C)CC[C@]4(C)CC[C@]23C)[C@@H]1CCC(=O)O	HEK293-A	cell growth or viability, SRB				IC50	22.8 µM
CC(=O)OC[C@H]1O[C@@H](Sc2sc(C(=O)c3ccc(C)cc3)c(N)c2-c2nc3ccccc3s2)[C@H](OC(C)=O)[C@@H](OC(C)=O)[C@H]1OC(C)=O	FRhK-4			72 h		non-toxic concentration	100 µg/mL
COc1cc(/C=C/C(=O)c2ccc3ccccc3c2)ccc1OCc1ccccc1	HEK293 empty vector pcDNA3.1	cell growth, MTT		72 h, 10% FBS		GI50	> 100 µM

SMILES	target or system	test	system	setting	scale	endpoint	result
COc1ccc2c(oc3c4ccc(O)cc4oc(=O)c23)c1CC=C(C)C	3T3-L1	MTT		concentration not given		viability	34.2 ± 0.9%
Nc1c(C(=O)c2ccc(Br)cc2)sc(S)c1-c1nc2ccccc2s1	FRhK-4			72 h		non-toxic concentration	100 µg/mL
COc1cc(O)cc(CCc2cc(Cl)ccc2O)c1	HCT-116 5-FU-resistant	SRB		5 µM, 24 h pretreatment, with: 5-fluorouracil 72 h		sensitization to 5-fluorouracil	2.75 fold
O=C1c2ccccc2C2(c3ccc(O)cc3Oc3cc(O)ccc32)N1CCS(=O)(=O)O	hRMEC monolayer			100 µM, 360 min, apical to basolateral		Papp	10.7 ± 0.36 ×10⁻⁶ cm/s
O=C(CN1CCN(C(=O)CC23CC4CC(CC(C4)C2)C3)CC1)NC1CCN(S(=O)(=O)c2cc(C(=O)Nc3cc(F)c(F)c(F)c3)ccc2F)CC1	HepAD38	cytopathic effect	human hepatoma cells			maximum non-toxic concentration	10 µmol/L
O=c1[nH]c2ccccc2nc1/C=C/c1ccc2ccccc2n1	HL7702	cell viability, MTT		72 h		IC50	> 100 µM
COc1cc(/C=C/C(=O)c2ccc3c(c2)OCO3)cc(OC)c1OC	HEK293 empty vector pcDNA3.1	cell growth, MTT		72 h, 10% FBS		GI50	4.4 µM
COc1cc(CCC(C)=O)ccc1O	mAb 4-AT4	antibody binding, indirect competitive ELISA		with: coating antigen hapten 2-OVA		IC50	> 4000 ng/mL
CC(=O)O[C@@H]1C[C@H]2C(C)(C)[C@H](O)CC[C@]2(C)[C@H]2CC[C@]34C[C@]3(CC[C@H]4[C@@H](C)C[C@@H](O)[C@H](O)C(C)(C)O)[C@@]21C	fibroblasts	MTT		concentration not given		cytotoxicity	not toxic
CC(=O)OC[C@H]1O[C@@H](Sc2sc(C(=O)c3ccc(Cl)cc3)c(N)c2-c2nc3ccccc3s2)[C@H](OC(C)=O)[C@@H](OC(C)=O)[C@H]1OC(C)=O	FRhK-4			72 h		non-toxic concentration	90 µg/mL
CC(=O)[C@@]12C[C@@H](CC=C(C)C)[C@](C)(CCC=C(C)C)C(C(=O)c3ccccc3)=C1O[C@]1(C)CCCC(C)(C)[C@H]1C2 (relative stereo)	3T3-L1	MTT		concentration not given, 72 h, with: insulin 30 nM		viability	97%
Cc1cc(C)cc(OCC(N)c2ccccc2)c1 (centres unmarked)	normal iPSC cardiomyocytes	kinetic imaging cytometry		5 min, pH 7.4		beating cessation concentration	66 µM
COc1ccc(/C=C/C(=O)c2ccc3c(c2)OCO3)cc1OC	HEK293 empty vector pcDNA3.1	cell growth, MTT		72 h, 10% FBS		GI50	12.9 µM
CC(=O)OC[C@H]1O[C@@H](Sc2sc(C(=O)c3ccc(Br)cc3)c(N)c2-c2nc3ccccc3s2)[C@H](OC(C)=O)[C@@H](OC(C)=O)[C@H]1OC(C)=O	BGM	cytotoxicity		72 h		maximum non-toxic concentration	90 µg/mL
C=C(C)[C@@H]1CC[C@]2(C(=O)n3ccnc3)CC[C@]3(C)[C@H](CC[C@@H]4[C@@]5(C)CCCNC(C)(C)[C@@H]5CC[C@]43C)[C@@H]12	primary HFF	cell viability, CellTiter-Glo		HCMV AD169 assay setting		CC50	1.18 µM
CCOC(=O)c1cc(-c2nc3ccccc3s2)c(=O)n(NS(=O)(=O)c2ccc(Cl)cc2)c1N	BGM	trypan blue		72 h		maximum non-toxic concentration	130 µg/mL
CC(=O)O[C@@H]1[C@@H](OC(C)=O)[C@H](Sc2sc(C(=O)c3ccc(C)cc3)c(N)c2-c2nc3ccccc3s2)OC[C@H]1OC(C)=O	FRhK-4			72 h		non-toxic concentration	90 µg/mL
COc1ccc2c(c1CC=C(C)C)O[C@H]1c3cc4c(cc3OC[C@@]21O)OC(C)(C)C=C4	3T3-L1	MTT		concentration not given		viability	56.5 ± 1.3%
CCCCC/C=C/C(=O)CCc1ccc(O)c(OC)c1	mAb 3-LD3	antibody binding, indirect competitive ELISA		with: coating antigen hapten 4-OVA		IC50	1.37 ng/mL
NS(=O)(=O)Nc1ncnc(OCCOc2ncc(Br)cn2)c1-c1ccc(Br)cc1		refers to: compound formation	Beagle dog female, liver microsomes	500 mg/kg, 4 weeks	reference: vehicle	Vmax	1.8 fold

Repeated from above:
SMILES	target or system	test	system	setting	scale	endpoint	result
COc1ccc(/C=C/C(=O)c2ccc3c(c2)OCO3)cc1OC	HEK293 empty vector pcDNA3.1	cell growth, MTT		72 h, 10% FBS		GI50	12.9 µM
CC(=O)OC[C@H]1O[C@@H](Sc2sc(C(=O)c3ccc(C)cc3)c(N)c2-c2nc3ccccc3s2)[C@H](OC(C)=O)[C@@H](OC(C)=O)[C@H]1OC(C)=O	FRhK-4			72 h		non-toxic concentration	100 µg/mL
Nc1c(C(=O)c2ccc(Br)cc2)sc(S)c1-c1nc2ccccc2s1	FRhK-4			72 h		non-toxic concentration	100 µg/mL
COc1ccc([C@@H]2CC(=O)c3c(O)cc(O[C@@H]4O[C@H](CO[C@@H]5O[C@@H](C)[C@H](O)[C@@H](O)[C@H]5O)[C@@H](O)[C@H](O)[C@H]4O)cc3O2)cc1O	MRC5	cell growth or viability, MTS		100 µg/mL, 24 h		viability	54.8%
Cc1[nH][n+]([Pd-2]([Br])([Br])[n+]2[nH]c(C)c(CSC3CCCCC3)c2C)c(C)c1CSC1CCCCC1	Jurkat	cytotoxicity, 7-AAD flow cytometry		24 h		IC50	0.19 ± 0.02 µM
